Assay results gathered from unrelated publications.
Each numbered part is a random draw from the data of one study; scales do not carry over between parts.

Series 1
Target: Interferon regulatory factor 7, full length, phosphomimetic (IRF7, Homo sapiens, UniProt Q92985, residues 1-503, S471D/S472D/S475D/S476D/S477D/S483D/S484D/S487D)
Chain of UniProt Q92985 (whole entry, unmodified, looked up): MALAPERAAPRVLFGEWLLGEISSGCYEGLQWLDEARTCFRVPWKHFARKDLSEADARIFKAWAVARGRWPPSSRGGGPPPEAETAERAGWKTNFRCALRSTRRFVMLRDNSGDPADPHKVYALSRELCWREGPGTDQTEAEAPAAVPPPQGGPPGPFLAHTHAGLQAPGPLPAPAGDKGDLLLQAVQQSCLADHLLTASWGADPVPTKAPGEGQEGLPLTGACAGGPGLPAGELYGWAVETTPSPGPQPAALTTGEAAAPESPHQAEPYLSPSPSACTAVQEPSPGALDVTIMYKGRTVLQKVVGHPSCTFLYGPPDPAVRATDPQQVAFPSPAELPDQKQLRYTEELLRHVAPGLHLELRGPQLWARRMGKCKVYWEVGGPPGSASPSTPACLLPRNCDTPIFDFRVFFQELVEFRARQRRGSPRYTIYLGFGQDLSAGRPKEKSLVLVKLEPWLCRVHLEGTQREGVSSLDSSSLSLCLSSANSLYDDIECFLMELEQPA
Technique: protein-binding microarray
Form: double-stranded DNA, one strand shown
Matrix: in vitro
Concentration: 2200 nM top
Notes: 60-bp whole probe
With: salmon DNA 0.4 mg/ml
Baseline: random background probes
Reading: higher = stronger binding
All sequences stand within: GCCTAGCAC … GTCTTGATTCGCTTGACGCTGCTG
Oligonucleotide | fitted relative affinity [z-score]
CACTTTTCCTACATCAGCTGGTGCTAG | 2.76
GACGATTTAGGGTTTCGAGACGTGCTA | 1.29
TTAGATTTCAGTTTTGATTAGTGCTAG | 2.3
TCAGTTCTTATCCTTCCCACTGTGCTA | 2.46
GACGGTATCCTTTTCCTGACGTGCTAG | 1.41
GACAGTTCCCTTTTCCTGACGTGCTAG | 3.02
TTCGGTCTCGGTCTCGGTTAGTGCTAG | 1.56

Series 2
Target: Histone acetyltransferase KAT6A, both winged helices, GST fusion (KAT6A, Homo sapiens, UniProt Q92794, residues 1-181)
Technique: protein binding microarray
Form: double-stranded DNA, one strand shown
Matrix: in vitro
Concentration: not given
Notes: 8-mer, flanks averaged, mean of 2 arrays, mostly near background
Baseline: not given
Reading: higher = stronger binding
Target sequence (chain): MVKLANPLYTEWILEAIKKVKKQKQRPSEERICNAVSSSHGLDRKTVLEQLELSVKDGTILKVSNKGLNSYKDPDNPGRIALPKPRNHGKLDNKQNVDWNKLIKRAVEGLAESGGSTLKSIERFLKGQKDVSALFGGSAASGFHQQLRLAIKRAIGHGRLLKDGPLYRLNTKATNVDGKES
Oligonucleotide | E-score
TACTTTCA | -0.0765
CACGATTA | -0.0172
TAGGTACA | -0.185
AGCGAAAA | -0.0448
ATGGCGTG | -0.0395
ATCTTATG | -0.0757
ACTCTAAT | -0.144
GCGGGAAC | 0.319
CAGGGGCG | 0.0958
AACAACGA | -0.0677

Series 3
Target: RNA binding protein fox-1 homolog 2, RRM domain, GST-SBP tag (RBFOX2, Homo sapiens, UniProt O43251-10, residues 100-194)
Technique: RNA Bind-n-Seq
Form: RNA
Matrix: in vitro
Concentration: 365 nM
Notes: natural RNA segment, single round, ends assumed
Baseline: no-protein control
Reading: higher = stronger binding
Target sequence (chain): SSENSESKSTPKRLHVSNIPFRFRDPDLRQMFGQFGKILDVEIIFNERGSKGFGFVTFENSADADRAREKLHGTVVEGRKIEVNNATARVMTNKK
Oligonucleotide | RBNS enrichment (R)
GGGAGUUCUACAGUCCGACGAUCUUGGCAAUUUUUAUGUAGUUUAAGUGGAAUUAAGCAGAGGGAGAUGCUUUUGGGUUUUUAAUAUGCCACUUCUGAGUGAAAACAUCUCGUGGAGUCAUUGUGUUCAGCUCUGGAAUUCUCGGGUGCCAA | 0.853
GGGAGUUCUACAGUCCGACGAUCGUGCCCAAGAUUAUCUGUAAAGUAAUAAAAUCUGCCGAGGAGAAUGUGAAAAGAAUUUGUUCAAGGCUUAACAUUUUUGAUACAGACUAAUAAAAUUUAAGAAACAAAGGUGGAAUUCUCGGGUGCCAA | 0.796
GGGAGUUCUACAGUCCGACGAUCUGGAAGUGUGAGGGGGGUGGAUGGGAAAGUCAAAGUCUGGUCUUGAGGGUCAUGGGUUUGCUUUUGCUGUUGUGACGCCUGUUCCCGUCUCUAUGUUAAAAUGCCAAAAAUGGAAUUCUCGGGUGCCAA | 1.05
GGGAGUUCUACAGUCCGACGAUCAGGUGGGGCUCCUGGCCCAGCAGCAGCAACUUGUUUGUUAGAAUGCAGACGCGCAGGCCCCACCUGGCCUCCUGAAUCAAAAUGGUGUGCGGCAGGGUGCAGCGAGCUGUUGGAAUUCUCGGGUGCCAA | 0.502
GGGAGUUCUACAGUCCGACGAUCGACACAUUUCGGUCCAGUGUAGCUGUACAUAUGGGGUGUGGACGACCUGUUACUGGACAUGUCUUAUUAAAUGGGUUGCUGUAUUAGGAUUAUAAACAUUUUUCAUUAUUUGGAAUUCUCGGGUGCCAA | 0.873
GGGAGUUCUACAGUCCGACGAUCAUGAUGUGACAUAAUAGAUGUGAAUGUUAAUCACUGCUUGACUAUGUUAAUAAAGUUGUUUAACUAUGACGUUGCACUCUUGAUUUUUAAUGGAAAGAAAUUACCUUAUCUGGAAUUCUCGGGUGCCAA | 0.589
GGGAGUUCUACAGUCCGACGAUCGUAUGCACAUUUGGGGGUAUAUCUAUUUCUGAAGAGGUAAGCUGAUCAAAAUAAAUAGAGUGUAAAUUCUUUUUAAUGCUUUAGUGAUUAAAUGUUUUAGUAUUUUGAACUGGAAUUCUCGGGUGCCAA | 0.671
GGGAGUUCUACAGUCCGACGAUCAUGAAUAAUGCCUGACAUUCAACAAUUGUGGAAAUAUGUUGGUAUGUUGCUGAACAUACAUACACCUCCGAAAUGCCAGUUCUGCAUUCUACACAUAUGCUUUCUGGCAGUGGAAUUCUCGGGUGCCAA | 1.85
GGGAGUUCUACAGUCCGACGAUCCACGCAUUGAAUACAUUUAAACUGUUCAUUAGCGGAGUGAUAUUUGGACAUAAAUAUCUCGUCUUCCAAUUUUAUGUAAUUAUACCUAACUUAUACCCUUGUAAAACUUGUGGAAUUCUCGGGUGCCAA | 0.569
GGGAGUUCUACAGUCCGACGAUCAGCCCCACAGCCCCAAGCUCGCUGAGGCAACGUGAGAACAGGCUAUGGGAAGGCUGCAAAGGCUGAGAAAUGCAAAGGCUCAUAUUUAUAAAUCCCACCCCCAGAGUGGGUGGAAUUCUCGGGUGCCAA | 0.804
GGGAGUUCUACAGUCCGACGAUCUGGACCUGGGGAGUGGAUAUCAGAUGGGAUAUCUCCUUCCAUUCCCCGGUCCAGGGGAGAGUCACUAGUUGUACCCUACUCCAUUAGGUCCCAAAUGGGGGCCCCAUUUCUGGAAUUCUCGGGUGCCAA | 0.346

Single results of other studies
Molecule | target | test | test system | conditions | how to read | quantity | result
PhoQ, residues 284 288 289 292 302 303 GANMMA | PhoP, residues 12 14 15 18 19 LHHVQ (Escherichia coli, UniProt P23836) | Sort-seq, measured: YFP reporter | E. coli | PhoQ-PhoP variant library, with: 10 µM Mg2+ | baseline: high Mg2+ state, higher = stronger signaling | fold induction | 12.9
